Published values collected from several papers.
A part holds a random share of what one study measured.
Sequence of UniProt P06239 (whole entry, looked up): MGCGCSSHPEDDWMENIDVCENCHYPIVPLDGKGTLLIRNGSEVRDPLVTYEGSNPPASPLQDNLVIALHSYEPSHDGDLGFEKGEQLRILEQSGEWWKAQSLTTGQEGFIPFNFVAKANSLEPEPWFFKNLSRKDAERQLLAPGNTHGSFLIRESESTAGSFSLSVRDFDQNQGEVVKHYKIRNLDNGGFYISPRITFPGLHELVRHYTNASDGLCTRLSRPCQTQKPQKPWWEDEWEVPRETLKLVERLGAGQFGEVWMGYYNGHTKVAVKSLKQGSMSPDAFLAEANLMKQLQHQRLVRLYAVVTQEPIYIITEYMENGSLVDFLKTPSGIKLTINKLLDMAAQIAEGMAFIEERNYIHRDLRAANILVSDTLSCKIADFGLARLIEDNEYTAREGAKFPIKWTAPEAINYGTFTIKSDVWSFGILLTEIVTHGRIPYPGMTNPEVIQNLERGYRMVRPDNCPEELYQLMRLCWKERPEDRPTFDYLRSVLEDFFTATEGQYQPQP
Sequence of UniProt Q96PY6 (whole entry, looked up): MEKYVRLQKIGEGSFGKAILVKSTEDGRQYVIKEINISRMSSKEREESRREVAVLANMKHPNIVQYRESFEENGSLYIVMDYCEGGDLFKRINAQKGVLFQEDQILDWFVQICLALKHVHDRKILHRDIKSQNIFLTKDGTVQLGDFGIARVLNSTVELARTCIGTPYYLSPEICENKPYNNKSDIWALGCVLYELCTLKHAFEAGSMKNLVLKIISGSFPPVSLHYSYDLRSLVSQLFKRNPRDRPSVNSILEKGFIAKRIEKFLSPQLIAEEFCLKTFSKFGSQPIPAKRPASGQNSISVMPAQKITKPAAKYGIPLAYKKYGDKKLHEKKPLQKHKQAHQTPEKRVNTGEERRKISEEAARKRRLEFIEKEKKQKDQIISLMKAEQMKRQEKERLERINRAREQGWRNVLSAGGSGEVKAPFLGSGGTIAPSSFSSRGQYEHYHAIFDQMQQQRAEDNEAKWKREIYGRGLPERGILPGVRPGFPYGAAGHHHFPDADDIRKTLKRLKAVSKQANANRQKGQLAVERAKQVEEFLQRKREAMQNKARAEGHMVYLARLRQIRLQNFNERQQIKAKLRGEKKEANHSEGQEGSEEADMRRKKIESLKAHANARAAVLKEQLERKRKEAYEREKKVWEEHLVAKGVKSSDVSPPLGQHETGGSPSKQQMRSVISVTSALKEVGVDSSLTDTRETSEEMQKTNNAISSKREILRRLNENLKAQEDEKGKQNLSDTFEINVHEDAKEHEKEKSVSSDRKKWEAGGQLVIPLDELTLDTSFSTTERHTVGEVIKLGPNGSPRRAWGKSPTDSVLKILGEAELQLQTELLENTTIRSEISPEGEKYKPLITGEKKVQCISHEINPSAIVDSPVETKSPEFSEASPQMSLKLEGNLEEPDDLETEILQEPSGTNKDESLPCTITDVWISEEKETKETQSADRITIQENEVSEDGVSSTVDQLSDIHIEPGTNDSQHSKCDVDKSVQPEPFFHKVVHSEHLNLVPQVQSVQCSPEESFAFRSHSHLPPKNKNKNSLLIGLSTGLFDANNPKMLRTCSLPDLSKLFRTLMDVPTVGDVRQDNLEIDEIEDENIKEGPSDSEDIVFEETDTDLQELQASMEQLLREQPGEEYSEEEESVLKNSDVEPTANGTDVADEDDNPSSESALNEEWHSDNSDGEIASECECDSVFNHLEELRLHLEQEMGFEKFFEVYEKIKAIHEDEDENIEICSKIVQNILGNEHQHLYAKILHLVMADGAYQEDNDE
Sequence of UniProt Q9Y6M4 (whole entry, looked up): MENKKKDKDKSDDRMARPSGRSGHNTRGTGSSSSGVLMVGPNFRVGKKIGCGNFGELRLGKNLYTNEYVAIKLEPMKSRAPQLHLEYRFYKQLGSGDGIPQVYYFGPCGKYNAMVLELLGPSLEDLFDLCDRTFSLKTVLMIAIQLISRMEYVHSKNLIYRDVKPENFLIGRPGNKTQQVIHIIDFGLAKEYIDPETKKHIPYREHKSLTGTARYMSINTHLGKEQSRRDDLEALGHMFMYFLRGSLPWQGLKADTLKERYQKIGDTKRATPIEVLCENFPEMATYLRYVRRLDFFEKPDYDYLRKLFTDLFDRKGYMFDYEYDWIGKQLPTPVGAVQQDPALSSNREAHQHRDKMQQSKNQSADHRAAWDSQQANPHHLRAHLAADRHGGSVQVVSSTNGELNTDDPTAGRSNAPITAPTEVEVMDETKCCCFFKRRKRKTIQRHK
Sequence of UniProt P36507 (whole entry, looked up): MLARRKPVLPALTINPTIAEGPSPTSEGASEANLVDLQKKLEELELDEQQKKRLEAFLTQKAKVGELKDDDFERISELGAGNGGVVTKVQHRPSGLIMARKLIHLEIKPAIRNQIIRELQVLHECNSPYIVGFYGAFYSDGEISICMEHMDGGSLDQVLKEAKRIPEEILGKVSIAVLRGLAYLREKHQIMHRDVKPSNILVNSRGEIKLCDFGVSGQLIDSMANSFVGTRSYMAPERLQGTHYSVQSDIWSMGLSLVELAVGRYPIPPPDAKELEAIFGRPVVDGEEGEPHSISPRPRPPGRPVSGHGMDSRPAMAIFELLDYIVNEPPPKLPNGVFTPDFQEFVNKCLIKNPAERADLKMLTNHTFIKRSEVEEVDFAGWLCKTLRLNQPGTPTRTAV
Sequence of UniProt Q12866 (whole entry, looked up): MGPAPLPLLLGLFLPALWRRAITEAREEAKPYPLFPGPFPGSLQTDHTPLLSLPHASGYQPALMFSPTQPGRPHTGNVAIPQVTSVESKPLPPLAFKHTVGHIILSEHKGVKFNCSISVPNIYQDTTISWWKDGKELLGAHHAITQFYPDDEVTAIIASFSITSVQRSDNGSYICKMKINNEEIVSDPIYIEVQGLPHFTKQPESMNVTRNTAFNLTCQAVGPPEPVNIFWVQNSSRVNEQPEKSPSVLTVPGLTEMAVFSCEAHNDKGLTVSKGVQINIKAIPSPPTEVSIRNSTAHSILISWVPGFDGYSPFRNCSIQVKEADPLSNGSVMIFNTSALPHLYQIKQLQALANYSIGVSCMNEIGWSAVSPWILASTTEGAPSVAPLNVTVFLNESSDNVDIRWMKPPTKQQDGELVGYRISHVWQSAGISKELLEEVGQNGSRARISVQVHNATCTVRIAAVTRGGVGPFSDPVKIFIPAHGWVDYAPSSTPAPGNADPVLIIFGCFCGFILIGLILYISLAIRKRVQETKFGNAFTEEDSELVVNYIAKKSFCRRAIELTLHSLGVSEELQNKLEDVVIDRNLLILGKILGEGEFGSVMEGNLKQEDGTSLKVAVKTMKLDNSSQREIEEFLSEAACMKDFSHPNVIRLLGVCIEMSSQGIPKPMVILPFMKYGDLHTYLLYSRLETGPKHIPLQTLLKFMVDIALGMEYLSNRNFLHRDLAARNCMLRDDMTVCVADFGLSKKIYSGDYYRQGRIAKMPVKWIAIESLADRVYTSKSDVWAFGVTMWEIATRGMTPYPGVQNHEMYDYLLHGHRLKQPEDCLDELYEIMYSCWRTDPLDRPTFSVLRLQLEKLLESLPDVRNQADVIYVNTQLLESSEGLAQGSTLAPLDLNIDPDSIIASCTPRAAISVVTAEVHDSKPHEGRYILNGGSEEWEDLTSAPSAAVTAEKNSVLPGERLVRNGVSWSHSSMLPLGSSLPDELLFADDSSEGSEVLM
Sequence of UniProt Q6PHR2 (whole entry, looked up): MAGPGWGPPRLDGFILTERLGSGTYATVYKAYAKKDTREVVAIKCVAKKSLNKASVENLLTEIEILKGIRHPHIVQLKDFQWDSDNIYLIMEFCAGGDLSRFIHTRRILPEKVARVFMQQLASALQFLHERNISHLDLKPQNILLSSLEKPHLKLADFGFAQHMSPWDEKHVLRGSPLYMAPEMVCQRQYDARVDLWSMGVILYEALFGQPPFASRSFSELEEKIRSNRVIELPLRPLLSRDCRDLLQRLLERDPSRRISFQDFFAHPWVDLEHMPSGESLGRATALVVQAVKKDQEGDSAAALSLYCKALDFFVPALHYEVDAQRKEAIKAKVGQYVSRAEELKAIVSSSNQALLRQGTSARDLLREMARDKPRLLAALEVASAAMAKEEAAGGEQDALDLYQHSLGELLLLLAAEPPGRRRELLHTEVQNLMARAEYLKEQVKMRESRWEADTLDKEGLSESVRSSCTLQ
Sequence of UniProt P49841 (whole entry, looked up): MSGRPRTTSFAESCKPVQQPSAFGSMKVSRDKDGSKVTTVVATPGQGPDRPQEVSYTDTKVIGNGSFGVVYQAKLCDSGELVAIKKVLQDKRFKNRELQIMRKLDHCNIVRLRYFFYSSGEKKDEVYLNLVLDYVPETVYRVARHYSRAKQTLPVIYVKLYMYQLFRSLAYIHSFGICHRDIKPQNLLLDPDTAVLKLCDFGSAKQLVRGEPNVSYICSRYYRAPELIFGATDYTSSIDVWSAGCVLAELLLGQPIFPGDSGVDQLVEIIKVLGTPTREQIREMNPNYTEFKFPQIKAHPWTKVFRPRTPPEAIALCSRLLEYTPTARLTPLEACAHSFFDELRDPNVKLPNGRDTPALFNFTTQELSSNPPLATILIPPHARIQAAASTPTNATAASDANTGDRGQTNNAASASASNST
Sequence of UniProt P49137 (whole entry, looked up): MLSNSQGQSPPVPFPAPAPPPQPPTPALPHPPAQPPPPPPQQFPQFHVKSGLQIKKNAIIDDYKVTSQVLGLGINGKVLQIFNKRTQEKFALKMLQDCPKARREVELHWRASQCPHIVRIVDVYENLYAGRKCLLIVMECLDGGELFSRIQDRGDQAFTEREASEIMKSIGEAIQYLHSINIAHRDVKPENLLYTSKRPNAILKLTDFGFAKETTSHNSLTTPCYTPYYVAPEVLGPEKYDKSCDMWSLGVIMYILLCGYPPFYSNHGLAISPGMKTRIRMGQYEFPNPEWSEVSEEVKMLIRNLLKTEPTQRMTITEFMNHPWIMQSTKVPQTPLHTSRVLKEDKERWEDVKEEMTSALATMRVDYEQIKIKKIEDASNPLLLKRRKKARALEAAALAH

Study 1 — Structure (SMILES): Cc1cc2ncc(-c3ccccc3)nc2cc1C; observed: enzyme activity; action: inhibitor; concentration: 0.5 µM; baseline: control
| target | remaining activity |
| --- | --- |
| Angiopoietin-1 receptor (TEK, Homo sapiens, UniProt Q02763) | 99.7% |
| Ribosomal protein S6 kinase alpha-2 (RPS6KA2, Homo sapiens, UniProt Q15349) | 92.5% |
| Dual specificity mitogen-activated protein kinase kinase 2 (MAP2K2, Homo sapiens, UniProt P36507) | 97.6% |
| Casein kinase I isoform gamma-3 (CSNK1G3, Homo sapiens, UniProt Q9Y6M4) | 99% |
| Tyrosine-protein kinase FRK (FRK, Homo sapiens, UniProt P42685) | 99.1% |
| Activin receptor type-1B (ACVR1B, Homo sapiens, UniProt P36896) | 97.7% |
| Tyrosine-protein kinase Mer (MERTK, Homo sapiens, UniProt Q12866) | 81.4% |
| Macrophage-stimulating protein receptor (MST1R, Homo sapiens, UniProt Q04912) | 99.4% |
| Serine/threonine-protein kinase ULK3 (ULK3, Homo sapiens, UniProt Q6PHR2) | 86.4% |
| Tyrosine-protein kinase Lck (LCK, Homo sapiens, UniProt P06239) | 99.5% |
| Serine/threonine-protein kinase Nek6 (NEK6, Homo sapiens, UniProt Q9HC98) | 101% |
| MAP kinase-activated protein kinase 2 (MAPKAPK2, Homo sapiens, UniProt P49137) | 95.9% |
| Serine/threonine-protein kinase Nek1 (NEK1, Homo sapiens, UniProt Q96PY6) | 96.1% |
| Glycogen synthase kinase-3 beta (GSK3B, Homo sapiens, UniProt P49841) | 79.5% |

Study 2 — matrix: hydrocarbon/water; pH: 7.4
| Structure (SMILES) | logD |
| --- | --- |
| CCC[C@@H]1NC(=O)CN(CCC)C(=O)[C@H](CC(C)C)NC(=O)Cn2cc(nn2)CN(C)C(=O)[C@H](CC(C)C)NC(=O)[C@H](C)N(C)C(=O)[C@H](CC)NC(=O)[C@H](C)N(C)C(=O)[C@H]2CCCN2C1=O | -2.11 |
| CC(C)C[C@@H]1NC(=O)CN(Cc2ccc3c(c2)OCO3)C(=O)[C@H](C)NC(=O)[C@H](CC(C)C)N(C)C(=O)[C@H]2CCCN2C(=O)[C@H](C)NC(=O)CN(CC2CCCCC2)C(=O)[C@H](C)NC(=O)[C@H](CC(C)C)N(C)C(=O)[C@H]2CCCN2C1=O | 2.24 |
| CC[C@H]1C(=O)N[C@@H](CC2CCCCC2)C(=O)N(C)[C@@H](C)C(=O)N[C@@H](CC(C)C)C(=O)N(C)Cc2cn(nn2)CC(=O)N[C@@H](CC(C)C)C(=O)N(C)[C@@H](C)C(=O)N[C@@H](CC(C)C)C(=O)N2CCC[C@@H]2C(=O)N1C | 1.32 |
| CC[C@@H]1NC(=O)CN(CC)C(=O)[C@H]2CCCN2C(=O)[C@H](CC(C)C)NC(=O)[C@H](C)N(C)C(=O)[C@H](CC(C)C)NC(=O)Cn2cc(nn2)CN(C)C(=O)[C@H](CC(C)C)NC(=O)[C@H](C)N(C)C1=O | -1.65 |
| CC(C)C[C@@H]1NC(=O)CN(CCCOC(C)C)C(=O)[C@H](C)NC(=O)[C@H](CC(C)C)N(C)C(=O)[C@H]2CCCN2C(=O)[C@H](C)NC(=O)CN(CC2CCCCC2)C(=O)[C@H](C)NC(=O)[C@H](CC(C)C)N(C)C(=O)[C@H]2CCCN2C1=O | 2 |
| CCCN1CC(=O)N[C@@H](CC2CCCCC2)C(=O)N2CCC[C@@H]2C(=O)N(C)[C@@H](C)C(=O)N[C@@H](CC2CCCCC2)C(=O)N(C)[C@@H](C)C(=O)N[C@@H](CC(C)C)C(=O)N(C)Cc2cn(nn2)CC(=O)N[C@@H](C2CCCCC2)C1=O | 2.35 |
| CC(C)CC1NC(=O)CN(CC2CCOCC2)C(=O)C2CCCN2C(=O)C(CC(C)C)NC(=O)C(C)N(C)C(=O)C(CC(C)C)NC(=O)CN(Cc2ccc3c(c2)OCO3)C(=O)C2CCCN2C(=O)C(Cc2ccccc2)NC(=O)C(C)N(C)C1=O (stereo not shown) | 2.81 |
| CCCCCN1CC(=O)N[C@@H](Cc2ccccc2)C(=O)N2CCC[C@@H]2C(=O)N(C)[C@@H](CC(C)C)C(=O)N[C@@H](C)C(=O)N(CC)CC(=O)N[C@@H](CC(C)C)C(=O)N2CCC[C@@H]2C(=O)N(C)[C@@H](CC(C)C)C(=O)N[C@@H](C)C1=O | 1.97 |
| CCCN1CC(=O)N[C@@H](CC2CCCCC2)C(=O)N(C)[C@@H](C)C(=O)N[C@@H](CC(C)C)C(=O)N(C)Cc2cn(nn2)CC(=O)N[C@@H](CC(C)C)C(=O)N(C)[C@@H](C)C(=O)N[C@@H](CC2CCCCC2)C(=O)N2CCC[C@@H]2C1=O | 2.18 |
| CC(C)C[C@@H]1NC(=O)CN(Cc2ccc3c(c2)OCO3)C(=O)[C@H](C)NC(=O)[C@H](CC(C)C)N(C)C(=O)[C@H]2CCCN2C(=O)[C@H](C)NC(=O)CN(CC2CCOCC2)C(=O)[C@H](C)NC(=O)[C@H](CC(C)C)N(C)C(=O)[C@H]2CCCN2C1=O | 0.159 |

Study 3 — cell line: A-375; concentration: 100 µM; time: 18 h
| Structure (SMILES) | viability [%] |
| --- | --- |
| Cc1cc(O)c2c(c1)C(=O)c1cccc(O)c1C2=O | 102 |
| CCN(CC)CCOc1ccc2c(c1)C(=O)c1cc(OCCN(CC)CC)ccc1-2 | 44 |
| CN(C)CCC=C1c2ccccc2CCc2ccccc21 | 7.92 |
| CCOC(=O)[C@H](CCc1ccccc1)N[C@@H](C)C(=O)N1[C@H](C(=O)O)C[C@@H]2CCC[C@@H]21 | 104 |
| C[C@@H]1C[C@H]2[C@@H]3CCC4=CC(=O)C=C[C@]4(C)[C@@]3(Cl)[C@@H](O)C[C@]2(C)[C@@]1(OC(=O)c1ccco1)C(=O)CCl | 39.1 |
| CC(=O)O[C@H]1C[C@@H]2CC[C@@H]3[C@H](CC[C@@]4(C)[C@H]3C[C@H]([N+]3(C)CCCCC3)[C@@H]4OC(C)=O)[C@@]2(C)C[C@@H]1N1CCCCC1 | 80.9 |
| COc1ccccc1OCC(O)COC(N)=O (stereo not shown) | 109 |
| COC1C(OC(N)=O)C(O)C(Oc2ccc3c(O)c(NC(=O)c4ccc(O)c(CC=C(C)C)c4)c(=O)oc3c2C)OC1(C)C (stereo not shown) | 89.9 |
| CN(C)CCN(Cc1ccccc1)c1ccccn1 | 63 |

Further values, each from its own experiment
| Structure (SMILES) | cell line | method | concentration | time | notes | quantity | result |
| --- | --- | --- | --- | --- | --- | --- | --- |
| CC(C)(C)OC(=O)N1CCCC1CNC1CCC(c2cc(F)ccc2F)(S(=O)(=O)c2ccc(Cl)cc2)CC1 (stereo not shown) | HEK293T | high-content imaging | concentration not given | 24 h | recommended concentration | healthy nuclei | 45% |

For quick reference, copied from above (study 3):
| Structure (SMILES) | viability [%] |
| --- | --- |
| CN(C)CCC=C1c2ccccc2CCc2ccccc21 | 7.92 |
| CCOC(=O)[C@H](CCc1ccccc1)N[C@@H](C)C(=O)N1[C@H](C(=O)O)C[C@@H]2CCC[C@@H]21 | 104 |
| C[C@@H]1C[C@H]2[C@@H]3CCC4=CC(=O)C=C[C@]4(C)[C@@]3(Cl)[C@@H](O)C[C@]2(C)[C@@]1(OC(=O)c1ccco1)C(=O)CCl | 39.1 |
| CC(=O)O[C@H]1C[C@@H]2CC[C@@H]3[C@H](CC[C@@]4(C)[C@H]3C[C@H]([N+]3(C)CCCCC3)[C@@H]4OC(C)=O)[C@@]2(C)C[C@@H]1N1CCCCC1 | 80.9 |
| COc1ccccc1OCC(O)COC(N)=O (stereo not shown) | 109 |
| COC1C(OC(N)=O)C(O)C(Oc2ccc3c(O)c(NC(=O)c4ccc(O)c(CC=C(C)C)c4)c(=O)oc3c2C)OC1(C)C (stereo not shown) | 89.9 |
